Experimental data pooled from the literature.
A part holds a random share of what one study measured.

Study 1 — method: protein-binding microarray; molecule type: double-stranded DNA, one strand shown; medium: in vitro; tested at: 2540 nM top; setting: 60-bp whole probe; together with: salmon DNA 0.4 mg/ml; relative to: random background probes; reading: higher = stronger binding; quantity: fitted relative affinity; all sequences stand within: GCCTAGCAC … GTCTTGATTCGCTTGACGCTGCTG
Target: Interferon regulatory factor 3, full length, phosphomimetic (IRF3, Homo sapiens, UniProt Q14653, residues 1-427, S386D/S396D/S398D/S402D/T404D/S405D)
Sequence of UniProt Q14653 (whole entry, unmodified, looked up): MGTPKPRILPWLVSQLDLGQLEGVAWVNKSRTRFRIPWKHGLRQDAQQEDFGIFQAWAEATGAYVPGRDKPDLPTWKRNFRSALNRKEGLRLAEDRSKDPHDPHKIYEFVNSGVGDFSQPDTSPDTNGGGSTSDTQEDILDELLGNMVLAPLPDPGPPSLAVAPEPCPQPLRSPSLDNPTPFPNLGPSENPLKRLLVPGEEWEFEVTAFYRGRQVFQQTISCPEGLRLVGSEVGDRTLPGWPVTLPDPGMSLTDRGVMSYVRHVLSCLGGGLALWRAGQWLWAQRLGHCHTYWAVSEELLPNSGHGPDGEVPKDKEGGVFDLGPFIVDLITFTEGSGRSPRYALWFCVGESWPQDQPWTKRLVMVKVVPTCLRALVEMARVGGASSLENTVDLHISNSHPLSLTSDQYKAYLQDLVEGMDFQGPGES
TTATAACTGGGGTTTCGATTAGTGCTA: 1.65 z-score
TTAGATTTTAGTCTCGATTAGTGCTAG: 0.656 z-score
TCTCCTTTCGGAATACCCTCGTGCTAG: 5.23 z-score
TGGGTAATGCTTCTGTATTCGTGCTAG: -0.579 z-score
TTAGGGATCGGGTTTCGGTTAGTGCTA: 2.91 z-score
GACGGTATCGGGTTTCGGGATGTGCTA: 3.23 z-score
TTAGATCTCAGTCTCGAATAGTGCTAG: 0.509 z-score
TTAGGATTGGGACTGGGTTAGTGCTAG: -0.527 z-score
TTAGATATCAGACTTGATTAGTGCTAG: 0.714 z-score
TACGAACTGAGTATCGAGACGTGCTAG: 0.155 z-score
CTTCACATATAATTTTGTCATGTGCTA: 0.525 z-score
TTCGGACTGGACACTGGGTTAGTGCTA: -0.548 z-score
TCAGGTTTCAGATGCGTACTGTGCTAG: 1.97 z-score
TCAGACATCTTCATCAAACTGTGCTAG: -0.0691 z-score
TCATAATTCACTATTACACTGTGCTAG: 1.06 z-score
TCACTTTTCATGCTCTTACTGTGCTAG: 1.94 z-score
TTAGGTGTCCTTTTCCTTTAGTGCTAG: 5.74 z-score

Study 2 — method: RNA Bind-n-Seq; molecule type: RNA; medium: in vitro; tested at: 200 nM; setting: whole 134-nt RNA, ends assumed; together with: 150 mM LiCl; relative to: input library; reading: higher = stronger binding; quantity: log2 enrichment; all molecules: 7-deaza-guanosine replaces G
Target: Ras GTPase-activating protein-binding protein 1, full length (G3BP1, Homo sapiens, UniProt Q13283)
Sequence of UniProt Q13283 (whole entry, looked up): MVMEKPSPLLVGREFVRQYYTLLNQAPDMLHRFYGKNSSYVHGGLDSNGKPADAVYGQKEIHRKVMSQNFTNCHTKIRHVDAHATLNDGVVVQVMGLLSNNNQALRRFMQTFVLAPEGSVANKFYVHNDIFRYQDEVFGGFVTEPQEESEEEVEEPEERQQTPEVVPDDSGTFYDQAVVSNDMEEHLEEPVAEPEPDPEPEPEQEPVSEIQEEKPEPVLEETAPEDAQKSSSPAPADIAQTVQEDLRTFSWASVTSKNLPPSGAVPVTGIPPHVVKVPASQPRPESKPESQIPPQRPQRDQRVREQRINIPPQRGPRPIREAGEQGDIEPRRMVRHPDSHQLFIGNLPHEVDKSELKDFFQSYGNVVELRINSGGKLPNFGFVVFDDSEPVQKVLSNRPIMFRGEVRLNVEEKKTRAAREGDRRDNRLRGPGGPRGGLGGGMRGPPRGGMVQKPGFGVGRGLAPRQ
All sequences stand within: GGGAGUUCUACAGUCCGACGAUC … UGGAAUUCUCGGGUGUCAAGG
AAGUCCUGUGCUACACAUCGUAUGUACCGAAUCGGGGCCCCGGGGCCCCGGCCCCGGAAAGUAUUAUGUUACGCCGUUCGGAUCUGCACU: -2.38
ACCAUGCAGGUGGGCAUCUUUGGGAAGUGGGGUAAGGGGGGGAUAGGGAGGGGGGUAACACUUUGGGAACAGGUGGUCCCAGGUCGUUUC: 0.318
CCUGUGCUACACAUCGUAUGUACCGAAUCGGGGUUUUUGGGGUUUGGGGUUUUUUUGGGGAAAGUAUUAUGUUACGCCGUUCGGAUCUGC: 0.626
UAACUUUAGAGGAGGAUCUGAUGGGUAUGGCAGUGGACGUGGAUUUGGGGAUGGCUAUAAUGGGUAUGGAGGAGGACCUGGAGGUGGCAA: 0.0792
GUCCUGUGCUACACAUCGUAUGUACCGAAUCGGGGAGGGGUUUUUUUGGGGUUUGGGGAAAGUAUUAUGUUACGCCGUUCGGAUCUGCAC: 0.286
CCUGUGCUACACAUCGUAUGUACCGAAUCAAAGUGUGUGUGUGUGAAAUGUGUGUGUGAAAAAAGUAUUAUGUUACGCCGUUCGGAUCUG: -1.32
UAACUUUAGAGGAGGAUCUGAUGGAUAUGGCAGUGGAGGUGGAUUUGGGGAUGGCUAUAAUGGGUAUGGAGGAGGACCUGGAGGUGGCAA: -0.0786
UAACUUUGGAGGAGGAUCUGAUGGAUAUGGCAGUGGACGUGGAUUUGGGGAUGGCUAUAAUGGGUAUGGAGGAGGACCUGGAGGUGGCAA: -0.0946

Study 3 — method: RNA Bind-n-Seq; molecule type: RNA; medium: in vitro; tested at: 365 nM; relative to: no-protein control; reading: higher = stronger binding; quantity: RBNS enrichment (R)
Target: RNA binding protein fox-1 homolog 2, RRM domain, GST-SBP tag (RBFOX2, Homo sapiens, UniProt O43251-10, residues 100-194)
Setting: natural RNA segment, single round, ends assumed
All sequences stand within: GGGAGUUCUACAGUCCGACGAUC … UGGAAUUCUCGGGUGCCAA
Target sequence (chain): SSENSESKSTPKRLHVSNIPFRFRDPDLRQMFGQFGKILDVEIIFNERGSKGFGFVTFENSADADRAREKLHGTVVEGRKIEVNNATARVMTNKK
AUUGGCCUGUGUCCGCCACUUGGAGUGCCCCAAAGGGGGCUUCUAACCAUUCCUUCCUCCAUCAGCCCCCAGCUUUUUUUCCUGGUAUCUGAGGUCCCAGGAGGAGGCUC: 0.64
AUUGUUACAAGUUUAUAAUGUAUUUUUCUAUCUUGUUUUAUAUGUAUGUUAUAUAACAUUCAAAAAGAAUUUUUUUCUUGAUUGAGAAAAGGAUACAAAAUGCAAAAUCC: 1.09
GAACCUUAUCAGUGACUUGGCCAACAAGGGAAGCCUUGGGGCCUCAGAAUUCAUUGAAGAUUUGUUUUGGGACAACUGGAAGAAUCAGCACCAUGGAUACUCGCCCGUGG: 0.243
UCUGGGGGCAGAAAUAAAAUCCCCGCAGCCUACUGCACUUCUUGGCUCAACGGUGUGCCAGCUUCUGGGUCAUUCUAUGGGCAAAGAUGCUGCCUUAGUUCAGGUUUGUC: 0.397
CACAGUUCUGUAGACAUCACUACACCGAUGUAGUUUCUCAAAUUUUAGCAAUAUGCUCUACAUAAAAUCACUACAGAGAUACUAGUGGGGAAGACGAUUAACACACCUCU: 0.313
UUUGUUCCCAAUGUCAGCCACCAUGCCUUAGCAGCUGAACAAUCGAGCCUCAUGCUCAUGAAAUCAUGGUCCCAGGCGGCUCCACCUCAAAGAGAAAGCCUGGAAGGAAA: 0.311
AAAGGAAAAAAAAAGCAGGUUUGAACGAUCACUUUGUGGCCUCCUGGCCACUUUUAGACAUUAUCAUUUUGCCUCAGGUUGGAGGACUUUGUGGAAUUUAAGAAAUACAU: 0.483
CUUUAUUGAGAUGUAUCAUGUAUUGAAUGAGUGAACCAGAAAAUUAGAAGAUGGUCAAAAAAAGUCCAAGUUACCAAUUUUUUAAAAUUUAUAGGCAAAGUAUCAAAUUG: 5.89
CUUGGGGAAGAUUUUUCACGCAGCCCUAAGUGCCCAAGCACAUUUUCCCUGGUUGCCUCCUGGGCCCCAUGUGGCCAGCAGAUGCUGGAGUCUGCCUGCUCAGACUAUCA: 0.299
GAUUCAGAAAUACAUUUUCAUUAUCCAAAAUCAGCUUCAACAAAUGGUUUCUGGAGACAAAUAAUUUGUUUUCAUUAUCAUUGUAUAAUCAGGUUAAUGAUUUAUUUUUU: 0.581
UGGCCUGAGUGUGGAGGACAAAGGAGGUCCAUGUCCUGCUUGCUGGAGACAGCUGGCCAGAAUCGUAUAUGCUGGUUUUAUAACUGUUUUAUUAUUAAAGAGAAGAAAAC: 0.548
CAGCCAGUGUCGGGAAGAGUUGCCCGCCAGCCUUCCAGAGUUCCCCUACCCGAUUGGUCCCGGCCUCCUGGGAGUGUGGCCAAGCCCUCCCUAACCCAGAAUUGGCCCGA: 0.541

Study 4 — method: protein binding microarray; molecule type: double-stranded DNA, one strand shown; medium: in vitro; tested at: not given; relative to: not given; reading: higher = stronger binding; quantity: E-score
Target: Histone acetyltransferase KAT6A, both winged helices, GST fusion (KAT6A, Homo sapiens, UniProt Q92794, residues 1-181)
Setting: 8-mer, flanks averaged, mean of 2 arrays, mostly near background
Residues (chain): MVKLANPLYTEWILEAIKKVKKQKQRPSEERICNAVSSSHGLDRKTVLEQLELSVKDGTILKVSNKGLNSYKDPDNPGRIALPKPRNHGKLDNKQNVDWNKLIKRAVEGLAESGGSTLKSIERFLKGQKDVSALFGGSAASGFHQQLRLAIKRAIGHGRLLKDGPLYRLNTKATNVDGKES
CTACGTAC: 0.00748
AAGTACAG: -0.264
CCACCTTA: -0.249
AGTTCTGA: -0.0878
AGCTCCAG: -0.167
GCGTGAAC: 0.227
GCATGCCC: 0.104
AGCAGGGG: -0.191
CTGCCCGA: 0.0547
CAACTACG: 0.00444
CTTAACCA: -0.199
CGATCTAA: -0.155
TCTGCAAA: -0.133
AGCCAACT: -0.164

For quick reference, copied from above (study 3):
CACAGUUCUGUAGACAUCACUACACCGAUGUAGUUUCUCAAAUUUUAGCAAUAUGCUCUACAUAAAAUCACUACAGAGAUACUAGUGGGGAAGACGAUUAACACACCUCU: 0.313
UUUGUUCCCAAUGUCAGCCACCAUGCCUUAGCAGCUGAACAAUCGAGCCUCAUGCUCAUGAAAUCAUGGUCCCAGGCGGCUCCACCUCAAAGAGAAAGCCUGGAAGGAAA: 0.311
AAAGGAAAAAAAAAGCAGGUUUGAACGAUCACUUUGUGGCCUCCUGGCCACUUUUAGACAUUAUCAUUUUGCCUCAGGUUGGAGGACUUUGUGGAAUUUAAGAAAUACAU: 0.483
CUUUAUUGAGAUGUAUCAUGUAUUGAAUGAGUGAACCAGAAAAUUAGAAGAUGGUCAAAAAAAGUCCAAGUUACCAAUUUUUUAAAAUUUAUAGGCAAAGUAUCAAAUUG: 5.89
CUUGGGGAAGAUUUUUCACGCAGCCCUAAGUGCCCAAGCACAUUUUCCCUGGUUGCCUCCUGGGCCCCAUGUGGCCAGCAGAUGCUGGAGUCUGCCUGCUCAGACUAUCA: 0.299
GAUUCAGAAAUACAUUUUCAUUAUCCAAAAUCAGCUUCAACAAAUGGUUUCUGGAGACAAAUAAUUUGUUUUCAUUAUCAUUGUAUAAUCAGGUUAAUGAUUUAUUUUUU: 0.581
UGGCCUGAGUGUGGAGGACAAAGGAGGUCCAUGUCCUGCUUGCUGGAGACAGCUGGCCAGAAUCGUAUAUGCUGGUUUUAUAACUGUUUUAUUAUUAAAGAGAAGAAAAC: 0.548
CAGCCAGUGUCGGGAAGAGUUGCCCGCCAGCCUUCCAGAGUUCCCCUACCCGAUUGGUCCCGGCCUCCUGGGAGUGUGGCCAAGCCCUCCCUAACCCAGAAUUGGCCCGA: 0.541
